Assay results pooled from the literature.
Numbered parts are unrelated; each lists some results of a single study. Changes are numbered by the printed parent chain.

Set 1
Target: Prothrombin, mature alpha-thrombin (F2, Homo sapiens, UniProt P00734)
Method: aptamer microarray, sandwich
Molecule type: DNA with 2'F-ANA
Sample: in vitro
Tested at: 200 nM
Notes: whole 15-mer aptamer, many near background
Together with: Cy3 exosite-II aptamer, 400 nM
Reading: higher = stronger binding
Endpoint: mean fluorescence intensity
Sequence: GGTTGGTGTGGTTGG
2'F-ANA at 2 6 9: 392 a.u.
2'F-ANA at 2 4 5 6 7 9 11 15: 61 a.u.
2'F-ANA at 2 3 4 7 8 12 13 14 15: 310 a.u.
2'F-ANA at 1 2 4 6 8 10 12 13 14 15: 48 a.u.
2'F-ANA at 1 3 4 5 7 15: 62.5 a.u.
2'F-ANA at 2 5 8 11 12 13 15: 111 a.u.
2'F-ANA at 1 2 4 6 7 10 12 13 14 15: 67.1 a.u.
2'F-ANA at 2 6 13 14: 149 a.u.
2'F-ANA at 3 12: 1340 a.u.
2'F-ANA at 1 2 3 5 6 9 10 11 12: 57.9 a.u.
2'F-ANA at 1 3 4 6 8 9 12: 422 a.u.
2'F-ANA at 3 4 6 7 9 11 14: 203 a.u.
2'F-ANA at 1 3 4 5 9 10 12 13 14 15: 46.4 a.u.
2'F-ANA at 1 2 3 4 6 7 9 10 13 15: 59.8 a.u.

Set 2
Target: Interferon regulatory factor 5, full length, phosphomimetic (IRF5, Homo sapiens, UniProt Q13568-2, residues 1-514, K96S/S451D/S453D/S456D/S462D)
Method: protein-binding microarray
Molecule type: double-stranded DNA, one strand shown
Sample: in vitro
Tested at: 250 nM
Notes: 60-bp whole probe
Together with: salmon DNA 0.4 mg/ml
Baseline: random background probes
Reading: higher = stronger binding
Endpoint: log fluorescence
Constant ends, left off below: GCCTAGCAC … GTCTTGATTCGCTTGACGCTGCTG
TCAATTTTGTGTTTTCAACTGTGCTAG: 1.1 z-score
TTAGATTTCGGTTTCGGTTAGTGCTAG: 11.4 z-score
GCCGGACTGCTTTTCCTGACGTGCTAG: -0.537 z-score
TTAGATCTCAGGTTCGATTAGTGCTAG: 0.347 z-score
TTAGAACTGAGACTGGATGAGTGCTAG: -0.151 z-score
TCATTTCTCTTATTCTAACTGTGCTAG: 1.96 z-score
GACGATTTCGGTCTCGAGACGTGCTAG: 6.84 z-score
GACGGACTAGGGTATCGGGACGTGCTA: -0.0227 z-score
TGAGGTATCGACACTGGGTTAGTGCTA: 1.07 z-score
TCATATACCCATGTAGAACTGTGCTAG: 0.193 z-score
AAACTTACCTCACTCGTTAAGTGCTAG: 0.426 z-score

Set 3
Target: NFE2L1, bZIP domain (human)
Method: DHFR protein complementation
Sample: yeast
Notes: single substitutions, most at no-binding floor
Baseline: wild-type JUN-FOS pair
Reading: higher = stronger binding
Endpoint: binding fitness
Starting sequence: JUN, bZIP domain (human); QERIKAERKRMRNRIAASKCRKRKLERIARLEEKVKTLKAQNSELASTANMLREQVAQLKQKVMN; partner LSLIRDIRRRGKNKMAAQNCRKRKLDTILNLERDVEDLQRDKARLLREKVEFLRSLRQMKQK
E54S: -1.51 natural log
R53G: -1.35 natural log
L38V: -1.4 natural log
S43Y: -1.44 natural log
Q55T: -1.6 natural log
A49Y: -1.54 natural log
L52E: -1.37 natural log
T48V: -1.47 natural log
R53P: -1.52 natural log
S47A: -1.4 natural log
E44P: -1.54 natural log
L52I: -1.56 natural log
Q41T: -1.51 natural log

Set 4
Target: CCNE1, cyclin fold, Cln2 fusion (human)
Method: yeast growth competition, sequencing
Sample: yeast
Notes: weak parent motif
Baseline: not given
Reading: higher = stronger binding
Endpoint: normalised enrichment score
Starting sequence: SAMHD1 docking peptide (human); ASKSRVQLFKDDP
L8T: 0.219
F9G: 0.0183
Q7H: 0.162
F9A: -0.156
D12T: 0.158
K3Q: 0.0438
K3N: -0.0988
K10R: 0.39
V6C: 0.0141
K3Y: 0.106
Q7Y: 0.346
Q7S: -0.324
V6F: 0.192
L8F: -0.0838
R5T: -0.0818
Q7A: -0.237
K3A: 0.372

Set 5
Target: Phosphate system positive regulatory protein PHO4, full length, GST-tagged (PHO4, Saccharomyces cerevisiae, UniProt P07270, residues 1-312)
Method: competition protein-binding microarray
Molecule type: double-stranded DNA, one strand shown
Sample: in vitro
Tested at: 2 µM
Notes: whole 60-bp probe, lowest competitor level
Together with: Cbf1 competitor, 0.05 µM
Reading: higher = stronger binding
Endpoint: fluorescence intensity
Constant ends, left off below: … GTCTTGATTCGCTTGACGCTGCTG
Construct (chain): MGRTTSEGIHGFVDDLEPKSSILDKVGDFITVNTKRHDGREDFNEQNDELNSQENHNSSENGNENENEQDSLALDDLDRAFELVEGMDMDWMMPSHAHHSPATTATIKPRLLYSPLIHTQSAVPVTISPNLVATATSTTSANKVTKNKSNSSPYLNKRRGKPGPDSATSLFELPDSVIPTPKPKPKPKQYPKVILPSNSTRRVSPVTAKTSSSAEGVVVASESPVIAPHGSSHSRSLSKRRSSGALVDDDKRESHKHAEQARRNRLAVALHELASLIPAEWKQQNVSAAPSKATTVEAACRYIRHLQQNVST
CGTCCTAGTGATTTTCACGTGTCATCCATGAGGAAG: 14400 a.u.
TTGACGATTATGATGAACGTGACTCGCAAGAAATAT: 8420 a.u.
GAATGAGTTACTGGTCCCGTGAAGCGATTGACACAA: 4090 a.u.
GTCATCCTCGTCGTTCACGGGTTTAATTTGAATCCT: 6810 a.u.
CTTCTGTAAATTTGCGAAGTGGGTGGACGCGCCCCG: 3960 a.u.
AAGAAGCTAATTTTGCACGTAAACAACAATCTATAC: 5060 a.u.
GCAGCTGACAGAAAACATGTGCTTTGACTTGGGGAC: 11700 a.u.
TTTGTCCTGAGCAATCACCTGATAGTAACGCACCAG: 4070 a.u.
GGGAAAAAAATTGACCACGTGACTCGAGAATCAACT: 16800 a.u.
AGGTTTTGCGGCCATCACGTTCGTCGGGACATATGA: 9430 a.u.
TAGTTTGCTGTCCGTCACGTGCTAAAGGGTCTGATA: 15600 a.u.

Set 6
Target: Histone acetyltransferase KAT6A, both winged helices, GST fusion (KAT6A, Homo sapiens, UniProt Q92794, residues 1-181)
Method: protein binding microarray
Molecule type: double-stranded DNA, one strand shown
Sample: in vitro
Tested at: not given
Notes: 8-mer, flanks averaged, mean of 2 arrays, mostly near background
Baseline: not given
Reading: higher = stronger binding
Endpoint: E-score
Target sequence (chain): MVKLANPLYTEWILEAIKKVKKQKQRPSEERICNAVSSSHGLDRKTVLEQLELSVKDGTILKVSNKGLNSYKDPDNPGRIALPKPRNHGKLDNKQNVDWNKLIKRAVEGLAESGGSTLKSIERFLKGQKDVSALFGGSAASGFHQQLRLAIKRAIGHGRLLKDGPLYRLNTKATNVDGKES
AGCGTCGC: 0.307
CTCACTAC: -0.161
GCATGAAA: -0.132
GAATCATC: 0.0432
ATCTTTAG: 0.00754
CTGGACAC: -0.19
CATAGGTA: -0.219
AGTGCCGC: 0.224
AGCACCGC: 0.185
ACCACATC: -0.206

Set 7
Target: Sal-like protein 4, full length isoform A (SALL4, Homo sapiens, UniProt Q9UJQ4, residues 1-1053)
Chain of UniProt Q9UJQ4 (whole entry, looked up): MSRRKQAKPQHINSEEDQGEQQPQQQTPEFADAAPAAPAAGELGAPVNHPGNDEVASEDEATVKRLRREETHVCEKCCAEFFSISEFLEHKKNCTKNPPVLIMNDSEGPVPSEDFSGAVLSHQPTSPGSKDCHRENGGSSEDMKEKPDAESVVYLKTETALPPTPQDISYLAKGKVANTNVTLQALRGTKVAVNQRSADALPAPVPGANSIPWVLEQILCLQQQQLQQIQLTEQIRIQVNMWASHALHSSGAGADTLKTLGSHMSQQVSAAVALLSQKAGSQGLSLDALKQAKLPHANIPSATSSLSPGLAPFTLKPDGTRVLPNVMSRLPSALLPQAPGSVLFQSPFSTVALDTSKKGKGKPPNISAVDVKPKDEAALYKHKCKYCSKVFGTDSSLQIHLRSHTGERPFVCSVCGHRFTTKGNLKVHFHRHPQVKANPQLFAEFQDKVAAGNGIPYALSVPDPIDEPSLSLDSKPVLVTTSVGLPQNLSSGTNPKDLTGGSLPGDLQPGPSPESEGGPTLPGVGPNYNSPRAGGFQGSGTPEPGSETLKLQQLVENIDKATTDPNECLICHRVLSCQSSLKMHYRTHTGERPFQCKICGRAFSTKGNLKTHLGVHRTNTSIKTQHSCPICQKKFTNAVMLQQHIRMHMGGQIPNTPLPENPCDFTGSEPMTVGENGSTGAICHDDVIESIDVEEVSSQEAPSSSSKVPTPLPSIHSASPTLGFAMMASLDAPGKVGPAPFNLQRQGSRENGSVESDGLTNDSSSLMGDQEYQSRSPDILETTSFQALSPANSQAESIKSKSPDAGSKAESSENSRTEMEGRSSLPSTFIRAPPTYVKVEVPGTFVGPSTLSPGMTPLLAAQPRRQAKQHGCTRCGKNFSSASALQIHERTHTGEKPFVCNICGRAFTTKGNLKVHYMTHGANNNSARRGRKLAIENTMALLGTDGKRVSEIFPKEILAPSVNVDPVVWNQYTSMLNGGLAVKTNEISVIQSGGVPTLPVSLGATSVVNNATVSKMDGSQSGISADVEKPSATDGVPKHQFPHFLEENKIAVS
Method: universal PBM
Molecule type: double-stranded DNA, one strand shown
Sample: in vitro
Tested at: 600 nM
Notes: 8-mer, flanks averaged, mean of replicates
Reading: higher = stronger binding
Endpoint: E-score
ATTACTAC: 0.248
AGAGGATC: -0.197
AATCCCTA: -0.0588
GACCCGCC: -0.33
CTGCTAGA: -0.165
ATTTTCTA: 0.332
ACTTCAAT: 0.236
CAACGTTC: 0.0293
GCTATACC: -0.0469
CCCCCGAC: -0.15
CAGTGTGA: 0.00027
ACCGGTCT: -0.235
GTTAGTGA: 0.0886
CGAAAAGA: 0.0851

A few entries again (set 1):
2'F-ANA at 2 6 9: 392 a.u.
2'F-ANA at 2 4 5 6 7 9 11 15: 61 a.u.
2'F-ANA at 2 3 4 7 8 12 13 14 15: 310 a.u.
2'F-ANA at 1 2 4 6 8 10 12 13 14 15: 48 a.u.
2'F-ANA at 1 3 4 5 7 15: 62.5 a.u.
2'F-ANA at 2 5 8 11 12 13 15: 111 a.u.
2'F-ANA at 1 2 4 6 7 10 12 13 14 15: 67.1 a.u.
2'F-ANA at 2 6 13 14: 149 a.u.
2'F-ANA at 3 12: 1340 a.u.
2'F-ANA at 1 2 3 5 6 9 10 11 12: 57.9 a.u.
2'F-ANA at 1 3 4 6 8 9 12: 422 a.u.
2'F-ANA at 3 4 6 7 9 11 14: 203 a.u.
2'F-ANA at 1 3 4 5 9 10 12 13 14 15: 46.4 a.u.
2'F-ANA at 1 2 3 4 6 7 9 10 13 15: 59.8 a.u.
